{"data": "Published values collected from several papers", "note": "A part holds a random share of what one study measured. Several values in a cell are separate wells, animals, samples, runs or records.", "chain of UniProt Q8IWQ3 (whole entry, looked up)": "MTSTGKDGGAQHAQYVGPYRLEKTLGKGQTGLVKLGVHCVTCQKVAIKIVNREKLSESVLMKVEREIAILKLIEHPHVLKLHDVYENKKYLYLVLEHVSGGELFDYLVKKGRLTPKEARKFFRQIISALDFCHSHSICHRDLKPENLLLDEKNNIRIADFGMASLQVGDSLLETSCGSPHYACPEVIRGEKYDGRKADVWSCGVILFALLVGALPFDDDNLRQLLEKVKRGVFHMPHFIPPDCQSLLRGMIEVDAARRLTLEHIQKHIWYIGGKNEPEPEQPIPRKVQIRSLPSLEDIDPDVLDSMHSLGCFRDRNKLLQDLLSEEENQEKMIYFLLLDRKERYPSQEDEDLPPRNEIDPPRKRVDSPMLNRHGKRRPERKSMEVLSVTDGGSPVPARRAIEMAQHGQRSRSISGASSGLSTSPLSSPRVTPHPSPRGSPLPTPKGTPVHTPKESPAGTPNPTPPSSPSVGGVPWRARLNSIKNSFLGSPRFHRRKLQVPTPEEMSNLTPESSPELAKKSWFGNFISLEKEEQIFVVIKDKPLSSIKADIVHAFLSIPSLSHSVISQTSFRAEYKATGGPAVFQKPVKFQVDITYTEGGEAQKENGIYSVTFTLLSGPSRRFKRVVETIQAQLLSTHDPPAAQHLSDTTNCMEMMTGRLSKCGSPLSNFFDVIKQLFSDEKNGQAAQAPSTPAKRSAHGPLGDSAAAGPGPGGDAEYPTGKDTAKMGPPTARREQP", "chain of UniProt P22455 (whole entry, looked up)": "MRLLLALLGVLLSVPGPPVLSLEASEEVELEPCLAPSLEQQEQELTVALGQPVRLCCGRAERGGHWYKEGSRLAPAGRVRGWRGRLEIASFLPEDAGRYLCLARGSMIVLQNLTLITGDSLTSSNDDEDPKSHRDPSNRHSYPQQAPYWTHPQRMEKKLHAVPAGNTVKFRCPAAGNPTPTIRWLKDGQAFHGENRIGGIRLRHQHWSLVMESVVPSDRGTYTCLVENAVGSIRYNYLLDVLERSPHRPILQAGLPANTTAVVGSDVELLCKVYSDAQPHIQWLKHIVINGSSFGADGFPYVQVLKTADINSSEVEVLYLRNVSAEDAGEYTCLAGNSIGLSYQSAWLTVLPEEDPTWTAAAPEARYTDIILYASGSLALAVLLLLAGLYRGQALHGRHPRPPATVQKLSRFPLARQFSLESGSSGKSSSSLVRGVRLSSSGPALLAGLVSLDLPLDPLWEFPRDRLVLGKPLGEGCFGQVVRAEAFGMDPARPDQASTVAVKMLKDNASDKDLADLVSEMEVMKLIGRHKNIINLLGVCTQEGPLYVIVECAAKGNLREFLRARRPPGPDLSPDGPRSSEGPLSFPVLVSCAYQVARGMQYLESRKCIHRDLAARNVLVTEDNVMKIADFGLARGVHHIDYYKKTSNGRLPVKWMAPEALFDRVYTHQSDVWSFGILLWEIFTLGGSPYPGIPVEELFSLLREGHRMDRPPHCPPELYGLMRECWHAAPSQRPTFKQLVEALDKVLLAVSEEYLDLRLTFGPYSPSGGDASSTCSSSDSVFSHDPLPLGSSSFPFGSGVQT", "chain of UniProt Q8TDX7 (whole entry, looked up)": "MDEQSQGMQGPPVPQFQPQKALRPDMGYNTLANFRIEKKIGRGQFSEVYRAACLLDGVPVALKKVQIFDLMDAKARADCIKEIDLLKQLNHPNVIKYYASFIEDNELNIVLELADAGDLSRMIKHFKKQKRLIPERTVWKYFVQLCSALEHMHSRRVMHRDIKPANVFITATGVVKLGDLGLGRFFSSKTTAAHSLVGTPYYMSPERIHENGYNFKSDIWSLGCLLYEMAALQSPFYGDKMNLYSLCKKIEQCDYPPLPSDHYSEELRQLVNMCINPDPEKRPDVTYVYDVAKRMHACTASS"}
{"data": "Study 1", "SMILES": "C=C(CN)COc1cccc(Cn2c(=S)[nH]c(=O)c3[nH]cnc32)c1", "MPO": "Myeloperoxidase (MPO, Homo sapiens, UniProt P05164)", "AOC3": "Amine oxidase [copper-containing] 3 (AOC3, Homo sapiens, UniProt Q16853)", "chain of UniProt Q16853 (whole entry, looked up)": "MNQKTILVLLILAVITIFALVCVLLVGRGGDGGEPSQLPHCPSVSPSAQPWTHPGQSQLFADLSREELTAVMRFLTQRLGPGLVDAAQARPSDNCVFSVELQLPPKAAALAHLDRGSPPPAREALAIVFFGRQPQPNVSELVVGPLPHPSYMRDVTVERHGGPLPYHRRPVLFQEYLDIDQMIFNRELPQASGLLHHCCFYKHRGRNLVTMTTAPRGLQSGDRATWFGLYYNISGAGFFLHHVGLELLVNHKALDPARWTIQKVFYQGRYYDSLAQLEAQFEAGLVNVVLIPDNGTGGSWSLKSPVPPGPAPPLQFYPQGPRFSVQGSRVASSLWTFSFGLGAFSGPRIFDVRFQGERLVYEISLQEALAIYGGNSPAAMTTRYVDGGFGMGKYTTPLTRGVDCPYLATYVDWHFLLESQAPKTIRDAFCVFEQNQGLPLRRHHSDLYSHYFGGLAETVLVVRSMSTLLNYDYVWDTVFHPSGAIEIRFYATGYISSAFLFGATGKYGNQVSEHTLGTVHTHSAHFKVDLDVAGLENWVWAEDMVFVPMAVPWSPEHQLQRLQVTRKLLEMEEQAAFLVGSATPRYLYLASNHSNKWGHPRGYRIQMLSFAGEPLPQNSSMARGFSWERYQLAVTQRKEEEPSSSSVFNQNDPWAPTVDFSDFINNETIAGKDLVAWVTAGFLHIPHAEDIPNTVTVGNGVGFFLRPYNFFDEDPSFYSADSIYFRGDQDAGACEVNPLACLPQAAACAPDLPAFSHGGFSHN", "chain of UniProt P05164 (whole entry, looked up)": "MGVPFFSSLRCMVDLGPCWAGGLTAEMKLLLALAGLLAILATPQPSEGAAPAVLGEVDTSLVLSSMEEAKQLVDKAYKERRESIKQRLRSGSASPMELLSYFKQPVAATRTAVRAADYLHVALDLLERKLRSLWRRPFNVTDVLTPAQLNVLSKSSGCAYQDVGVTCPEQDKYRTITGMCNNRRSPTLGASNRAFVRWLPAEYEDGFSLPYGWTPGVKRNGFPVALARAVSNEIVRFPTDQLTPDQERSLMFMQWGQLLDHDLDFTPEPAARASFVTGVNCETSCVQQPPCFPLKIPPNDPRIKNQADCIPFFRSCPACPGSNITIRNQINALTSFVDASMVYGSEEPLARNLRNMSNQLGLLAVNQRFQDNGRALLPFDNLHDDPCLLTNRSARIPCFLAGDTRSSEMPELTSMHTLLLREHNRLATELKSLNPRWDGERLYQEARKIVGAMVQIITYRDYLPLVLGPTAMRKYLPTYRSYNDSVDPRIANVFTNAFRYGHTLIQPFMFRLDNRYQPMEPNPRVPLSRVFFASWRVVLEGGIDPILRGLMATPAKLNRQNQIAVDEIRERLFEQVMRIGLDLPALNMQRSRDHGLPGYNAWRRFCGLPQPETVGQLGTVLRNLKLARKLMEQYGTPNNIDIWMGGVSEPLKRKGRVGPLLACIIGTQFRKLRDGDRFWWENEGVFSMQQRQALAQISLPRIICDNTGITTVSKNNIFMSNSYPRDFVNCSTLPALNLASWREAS"}
{"target": "MPO", "assay": "enzyme activity", "conditions": "0.0412 µM", "inhibition": "73.7% and 80.1%"}
{"target": "AOC3", "assay": "enzyme activity, Amplex Red H2O2 production", "conditions": "1.111 µM", "inhibition": "47.9%"}
{"target": "AOC3", "assay": "H2O2 production, inhibitor, Amplex Red", "conditions": "0.0046 µM", "inhibition": "-4.79 % Inhibition and 8.21 % Inhibition"}
{"target": "AOC3", "assay": "H2O2 production, inhibitor, Amplex Red", "conditions": "10 µM", "inhibition": "86 % Inhibition"}
{"target": "AOC3", "assay": "enzyme activity, Amplex Red H2O2 production", "conditions": "0.3704 µM", "inhibition": "27.5%"}
{"target": "AOC3", "assay": "H2O2 production, inhibitor, Amplex Red", "conditions": "0.0137 µM", "inhibition": "-2.51 % Inhibition and 20.6 % Inhibition"}
{"target": "MPO", "assay": "enzyme activity, inhibitor, fluorescence", "conditions": "200 pM", "inhibition": "2.07%"}
{"target": "AOC3", "assay": "H2O2 production, inhibitor, Amplex Red", "conditions": "0.1235 µM", "inhibition": "20.8 % Inhibition and 0.653 % Inhibition"}
{"target": "AOC3", "assay": "enzyme activity, Amplex Red H2O2 production", "conditions": "10 µM, mean value", "inhibition": "89.8%"}
{"target": "MPO", "assay": "enzyme activity, inhibitor, fluorescence", "conditions": "3.333 µM", "inhibition": "100%"}
{"target": "MPO", "assay": "enzyme activity, inhibitor, fluorescence", "conditions": "1 µM", "inhibition": "99.3%"}
{"target": "MPO", "assay": "enzyme activity", "conditions": "0.3704 µM", "inhibition": "98.8% and 98.3%"}
{"target": "AOC3", "assay": "enzyme activity, Amplex Red H2O2 production", "conditions": "3.333 µM, mean value", "inhibition": "75.7%"}
{"data": "Study 2", "Compound": "C[C@@H]1CN(c2ccc(-c3cc(C(=O)NCCOCCOCCOCCOCCOCCOCCNC(=O)/C=C/c4[nH]cc(C(=O)N[C@@H](CC(N)=O)c5ccc(F)c(Cl)c5)c4-c4ccc(Cl)cc4F)ccc3F)cc2NC(=O)c2ccc(F)cc2C(F)(F)F)C[C@H](C)N1C", "effect on": "thermal unfolding", "method": "differential scanning fluorimetry", "concentration": "5.5 µM", "reading": "higher = more unfolded", "DCAF1": "DDB1- and CUL4-associated factor 1 (DCAF1, Homo sapiens, UniProt Q9Y4B6)", "WDR5": "WD repeat-containing protein 5 (WDR5, Homo sapiens, UniProt P61964)", "chain of UniProt Q9Y4B6 (whole entry, looked up)": "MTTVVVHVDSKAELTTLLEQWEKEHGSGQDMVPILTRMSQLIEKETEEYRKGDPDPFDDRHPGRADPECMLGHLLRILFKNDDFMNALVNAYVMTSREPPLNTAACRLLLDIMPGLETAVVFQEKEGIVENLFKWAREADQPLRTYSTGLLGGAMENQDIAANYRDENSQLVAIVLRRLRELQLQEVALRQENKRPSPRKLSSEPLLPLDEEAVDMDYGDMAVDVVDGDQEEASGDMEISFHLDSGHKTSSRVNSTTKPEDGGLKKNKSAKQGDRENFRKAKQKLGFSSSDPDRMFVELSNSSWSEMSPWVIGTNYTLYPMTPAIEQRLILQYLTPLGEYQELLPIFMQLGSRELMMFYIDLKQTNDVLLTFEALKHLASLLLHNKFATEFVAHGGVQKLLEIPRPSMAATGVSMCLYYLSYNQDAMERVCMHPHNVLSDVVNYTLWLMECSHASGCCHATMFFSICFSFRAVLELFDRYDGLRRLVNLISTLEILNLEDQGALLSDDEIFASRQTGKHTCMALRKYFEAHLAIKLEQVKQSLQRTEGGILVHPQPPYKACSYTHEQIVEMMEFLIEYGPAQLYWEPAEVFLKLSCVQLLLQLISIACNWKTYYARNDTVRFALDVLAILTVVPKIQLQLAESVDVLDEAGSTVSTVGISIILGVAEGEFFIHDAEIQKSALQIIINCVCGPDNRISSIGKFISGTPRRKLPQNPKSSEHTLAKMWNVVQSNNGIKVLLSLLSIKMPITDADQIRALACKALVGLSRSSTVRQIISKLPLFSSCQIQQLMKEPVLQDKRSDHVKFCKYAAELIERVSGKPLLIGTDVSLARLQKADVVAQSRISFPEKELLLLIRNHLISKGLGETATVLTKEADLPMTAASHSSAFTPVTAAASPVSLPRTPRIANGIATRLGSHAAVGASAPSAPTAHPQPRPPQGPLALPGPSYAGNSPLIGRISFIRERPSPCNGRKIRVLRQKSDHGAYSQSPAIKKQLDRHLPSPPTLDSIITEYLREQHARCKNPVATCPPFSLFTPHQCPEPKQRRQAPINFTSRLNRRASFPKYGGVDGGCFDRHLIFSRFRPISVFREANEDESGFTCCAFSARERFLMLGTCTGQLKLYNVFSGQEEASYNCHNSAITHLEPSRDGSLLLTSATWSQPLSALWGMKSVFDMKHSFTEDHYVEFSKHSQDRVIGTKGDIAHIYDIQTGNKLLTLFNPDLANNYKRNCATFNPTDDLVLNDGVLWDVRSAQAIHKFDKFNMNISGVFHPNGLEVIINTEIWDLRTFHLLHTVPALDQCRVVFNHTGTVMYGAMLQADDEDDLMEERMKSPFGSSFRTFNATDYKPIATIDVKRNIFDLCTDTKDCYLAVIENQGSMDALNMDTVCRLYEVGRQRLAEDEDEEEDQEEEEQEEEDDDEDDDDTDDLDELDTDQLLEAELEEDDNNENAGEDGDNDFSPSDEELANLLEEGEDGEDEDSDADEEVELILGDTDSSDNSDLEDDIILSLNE"}
{"target": "DCAF1", "conditions": "79.21 °C", "SYPRO Orange fluorescence": "40500 a.u."}
{"target": "WDR5", "conditions": "41.2 °C", "SYPRO Orange fluorescence": "14300 a.u."}
{"target": "DCAF1", "conditions": "83.01 °C", "SYPRO Orange fluorescence": "37700 a.u."}
{"target": "DCAF1", "conditions": "80.01 °C", "SYPRO Orange fluorescence": "39900 a.u."}
{"target": "DCAF1", "conditions": "93.21 °C", "SYPRO Orange fluorescence": "30000 a.u."}
{"target": "WDR5", "conditions": "36.6 °C", "SYPRO Orange fluorescence": "13900 a.u."}
{"target": "DCAF1", "conditions": "43.8 °C", "SYPRO Orange fluorescence": "14000 a.u."}
{"target": "DCAF1", "conditions": "26.6 °C", "SYPRO Orange fluorescence": "7460 a.u."}
{"target": "DCAF1", "conditions": "26 °C", "SYPRO Orange fluorescence": "7450 a.u."}
{"target": "DCAF1", "conditions": "58.81 °C", "SYPRO Orange fluorescence": "42300 a.u."}
{"target": "WDR5", "conditions": "38.2 °C", "SYPRO Orange fluorescence": "13800 a.u."}
{"data": "Study 3", "SMILES": "CNc1ncc2cc(-c3cc(OC)cc(OC)c3Cl)c(=O)n(CCc3ccc(NC(=O)C(C#N)=CC(C)(C)N4CCOCC4)cc3)c2n1"}
{"target": "MAPK11 (Homo sapiens, UniProt Q15759)", "assay": "kinase activity", "conditions": "1 µM", "inhibition": "3%"}
{"target": "CK1", "conditions": "1 µM, mean", "inhibition": "-1%"}
{"target": "ROCK1 (Homo sapiens, UniProt Q13464)", "assay": "kinase activity", "conditions": "0.1 µM", "inhibition": "-4%"}
{"target": "IGF1R (Homo sapiens, UniProt P08069)", "assay": "kinase activity", "conditions": "0.1 µM", "inhibition": "3%"}
{"target": "FLT3 (Homo sapiens, UniProt P36888)", "assay": "kinase activity", "conditions": "1 µM", "inhibition": "4%"}
{"target": "TYK2 (Homo sapiens, UniProt P29597)", "assay": "kinase activity", "conditions": "0.1 µM", "inhibition": "0%"}
{"target": "BTK (Homo sapiens, UniProt Q06187)", "assay": "kinase activity", "conditions": "0.1 µM", "inhibition": "6%"}
{"target": "EPHA3 (Homo sapiens, UniProt P29320)", "assay": "kinase activity", "conditions": "0.1 µM", "inhibition": "-1%"}
{"target": "PIM2 (Homo sapiens, UniProt Q9P1W9)", "assay": "kinase activity", "conditions": "1 µM", "inhibition": "2%"}
{"target": "BRSK2 (Homo sapiens, UniProt Q8IWQ3)", "assay": "kinase activity", "conditions": "0.1 µM", "inhibition": "-2%"}
{"target": "Aurora kinase C (AURKC, Homo sapiens, UniProt Q9UQB9)", "assay": "kinase activity", "conditions": "0.1 µM", "inhibition": "-1%"}
{"target": "HIPK2 (Homo sapiens, UniProt Q9H2X6)", "assay": "kinase activity", "conditions": "0.1 µM", "inhibition": "-5%"}
{"target": "AXL (Homo sapiens, UniProt P30530)", "assay": "kinase activity", "conditions": "0.1 µM", "inhibition": "0%"}
{"target": "IKBKB (Homo sapiens, UniProt O14920)", "assay": "kinase activity", "conditions": "0.1 µM", "inhibition": "1%"}
{"target": "FGFR4 (Homo sapiens, UniProt P22455)", "assay": "kinase activity", "conditions": "1 µM", "inhibition": "> 90% and 94%"}
{"data": "Study 4", "SMILES": "CC[C@@]1(c2ccccc2)C2=C(CC(C)(C)CC2=O)Nc2n[nH]cc21", "concentration": "1 µM"}
{"target": "DAPK2 (Homo sapiens, UniProt Q9UIK4)", "assay": "kinase binding, KINOMEscan", "scale": "baseline: DMSO control", "remaining binding": "100%"}
{"target": "NEK7 (Homo sapiens, UniProt Q8TDX7)", "assay": "kinase binding, KINOMEscan", "scale": "baseline: DMSO control", "remaining binding": "100%"}
{"target": "PRKG1 (Homo sapiens, UniProt Q13976)", "assay": "binding, competition with immobilised ligand", "remaining binding": "100%"}
{"target": "TLK1 (Homo sapiens, UniProt Q9UKI8)", "assay": "kinase binding, KINOMEscan", "scale": "baseline: DMSO control", "remaining binding": "91%"}
{"target": "RIOK1 (Homo sapiens, UniProt Q9BRS2)", "assay": "binding, competition with immobilised ligand", "remaining binding": "100%"}
{"target": "CDK18 (Homo sapiens, UniProt Q07002)", "assay": "binding, competition with immobilised ligand", "remaining binding": "100%"}
{"target": "MAP2K5 (Homo sapiens, UniProt Q13163)", "assay": "kinase binding, KINOMEscan", "scale": "baseline: DMSO control", "remaining binding": "77%"}
{"target": "EPHA5 (Homo sapiens, UniProt P54756)", "assay": "binding, competition with immobilised ligand", "remaining binding": "100%"}
{"target": "ITK (Homo sapiens, UniProt Q08881)", "assay": "binding, competition with immobilised ligand", "remaining binding": "100%"}
{"target": "BTK (Homo sapiens, UniProt Q06187)", "assay": "binding, competition with immobilised ligand", "remaining binding": "97%"}
{"target": "MET (Homo sapiens, UniProt P08581)", "assay": "kinase binding, KINOMEscan", "scale": "baseline: DMSO control", "remaining binding": "74%"}
{"target": "Tyrosine-protein kinase ABL1, phosphorylated (ABL1, Homo sapiens, UniProt P00519, E255K)", "assay": "binding, competition with immobilised ligand", "remaining binding": "78%"}
{"target": "BLK (Homo sapiens, UniProt P51451)", "assay": "binding, competition with immobilised ligand", "remaining binding": "100%"}
{"target": "TTK (Homo sapiens, UniProt P33981)", "assay": "kinase binding, KINOMEscan", "scale": "baseline: DMSO control", "remaining binding": "100%"}
{"target": "GRK3 (Homo sapiens, UniProt P35626)", "assay": "binding, competition with immobilised ligand", "remaining binding": "51%"}
{"target": "CIT (Homo sapiens, UniProt O14578)", "assay": "kinase binding, KINOMEscan", "scale": "baseline: DMSO control", "remaining binding": "100%"}
{"target": "MAP2K4 (Homo sapiens, UniProt P45985)", "assay": "binding, competition with immobilised ligand", "remaining binding": "100%"}
{"target": "HUNK (Homo sapiens, UniProt P57058)", "assay": "kinase binding, KINOMEscan", "scale": "baseline: DMSO control", "remaining binding": "74%"}
{"target": "BRSK2 (Homo sapiens, UniProt Q8IWQ3)", "assay": "binding, competition with immobilised ligand", "remaining binding": "100%"}
{"target": "VRK2 (Homo sapiens, UniProt Q86Y07)", "assay": "kinase binding, KINOMEscan", "scale": "baseline: DMSO control", "remaining binding": "100%"}
{"target": "NUAK1 (Homo sapiens, UniProt O60285)", "assay": "binding, competition with immobilised ligand", "remaining binding": "80%"}
{"note": "For quick reference, copied from above (study 2):"}
{"target": "WDR5", "conditions": "41.2 °C", "SYPRO Orange fluorescence": "14300 a.u."}
{"target": "DCAF1", "conditions": "83.01 °C", "SYPRO Orange fluorescence": "37700 a.u."}
{"target": "DCAF1", "conditions": "80.01 °C", "SYPRO Orange fluorescence": "39900 a.u."}
